Measured values from different studies.
Each line is one published result; not all experiments were run side by side. Numbers after ± are the reported error.
CDK9 with cyclin T1: Cyclin-dependent kinase 9, with cyclin T1 (CDK9, Homo sapiens, UniProt P50750)
Chain of UniProt P50750 (whole entry, looked up): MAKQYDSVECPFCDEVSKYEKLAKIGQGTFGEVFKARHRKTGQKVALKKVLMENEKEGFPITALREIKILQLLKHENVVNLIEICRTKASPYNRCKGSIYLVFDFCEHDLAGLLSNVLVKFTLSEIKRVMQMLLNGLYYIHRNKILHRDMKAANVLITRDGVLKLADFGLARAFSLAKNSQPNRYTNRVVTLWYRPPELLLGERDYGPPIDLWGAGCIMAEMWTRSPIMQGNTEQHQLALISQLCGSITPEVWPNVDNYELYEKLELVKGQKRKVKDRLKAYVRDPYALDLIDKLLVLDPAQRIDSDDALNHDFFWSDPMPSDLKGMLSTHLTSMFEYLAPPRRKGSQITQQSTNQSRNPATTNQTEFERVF
Chain of UniProt Q68D91 (whole entry, looked up): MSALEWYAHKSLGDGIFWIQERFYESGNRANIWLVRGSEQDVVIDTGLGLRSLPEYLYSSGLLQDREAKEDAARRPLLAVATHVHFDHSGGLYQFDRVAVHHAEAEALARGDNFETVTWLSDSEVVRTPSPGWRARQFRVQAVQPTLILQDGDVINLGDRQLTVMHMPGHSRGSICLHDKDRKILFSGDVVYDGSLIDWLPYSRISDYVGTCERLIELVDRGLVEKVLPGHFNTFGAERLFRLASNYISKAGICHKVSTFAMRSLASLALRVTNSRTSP
Chain of UniProt Q05513 (whole entry, looked up): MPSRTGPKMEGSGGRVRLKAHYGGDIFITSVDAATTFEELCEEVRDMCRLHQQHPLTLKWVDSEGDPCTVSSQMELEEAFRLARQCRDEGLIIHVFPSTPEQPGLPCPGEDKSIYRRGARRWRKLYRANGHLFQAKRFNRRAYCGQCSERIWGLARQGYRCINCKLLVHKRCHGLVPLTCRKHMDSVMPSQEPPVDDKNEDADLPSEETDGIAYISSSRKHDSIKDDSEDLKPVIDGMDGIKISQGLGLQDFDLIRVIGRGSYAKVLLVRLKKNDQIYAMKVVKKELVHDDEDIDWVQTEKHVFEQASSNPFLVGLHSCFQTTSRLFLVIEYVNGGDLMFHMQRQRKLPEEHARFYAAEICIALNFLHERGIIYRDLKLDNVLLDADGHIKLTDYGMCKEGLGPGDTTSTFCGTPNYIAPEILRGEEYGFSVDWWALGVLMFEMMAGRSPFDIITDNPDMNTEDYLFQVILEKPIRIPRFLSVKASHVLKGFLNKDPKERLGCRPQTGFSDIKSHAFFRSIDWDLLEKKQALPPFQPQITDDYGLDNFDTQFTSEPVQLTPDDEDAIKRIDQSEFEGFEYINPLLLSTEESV
Chain of UniProt Q14833 (whole entry, looked up): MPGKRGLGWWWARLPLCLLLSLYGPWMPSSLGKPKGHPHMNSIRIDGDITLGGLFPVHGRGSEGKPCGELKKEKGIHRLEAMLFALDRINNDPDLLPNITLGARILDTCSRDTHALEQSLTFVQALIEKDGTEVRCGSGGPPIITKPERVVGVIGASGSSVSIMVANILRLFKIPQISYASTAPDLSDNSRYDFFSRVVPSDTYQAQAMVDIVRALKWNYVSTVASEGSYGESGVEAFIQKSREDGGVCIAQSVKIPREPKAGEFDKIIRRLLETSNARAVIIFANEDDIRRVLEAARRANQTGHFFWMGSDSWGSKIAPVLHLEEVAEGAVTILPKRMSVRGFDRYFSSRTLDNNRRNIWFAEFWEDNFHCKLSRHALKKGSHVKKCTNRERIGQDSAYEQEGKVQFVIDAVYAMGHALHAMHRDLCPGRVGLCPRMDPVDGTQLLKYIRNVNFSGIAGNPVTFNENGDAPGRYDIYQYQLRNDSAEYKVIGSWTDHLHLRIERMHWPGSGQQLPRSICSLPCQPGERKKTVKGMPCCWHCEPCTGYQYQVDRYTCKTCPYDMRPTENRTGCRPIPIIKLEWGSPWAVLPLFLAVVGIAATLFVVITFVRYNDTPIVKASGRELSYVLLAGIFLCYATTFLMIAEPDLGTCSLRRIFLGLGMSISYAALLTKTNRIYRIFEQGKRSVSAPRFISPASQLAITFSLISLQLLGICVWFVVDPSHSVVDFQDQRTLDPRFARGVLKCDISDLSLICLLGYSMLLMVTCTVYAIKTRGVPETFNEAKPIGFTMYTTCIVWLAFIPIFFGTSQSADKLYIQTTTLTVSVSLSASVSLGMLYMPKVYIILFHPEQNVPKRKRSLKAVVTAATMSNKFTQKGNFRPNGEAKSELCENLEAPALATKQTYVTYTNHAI
Chain of UniProt O14764 (whole entry, looked up): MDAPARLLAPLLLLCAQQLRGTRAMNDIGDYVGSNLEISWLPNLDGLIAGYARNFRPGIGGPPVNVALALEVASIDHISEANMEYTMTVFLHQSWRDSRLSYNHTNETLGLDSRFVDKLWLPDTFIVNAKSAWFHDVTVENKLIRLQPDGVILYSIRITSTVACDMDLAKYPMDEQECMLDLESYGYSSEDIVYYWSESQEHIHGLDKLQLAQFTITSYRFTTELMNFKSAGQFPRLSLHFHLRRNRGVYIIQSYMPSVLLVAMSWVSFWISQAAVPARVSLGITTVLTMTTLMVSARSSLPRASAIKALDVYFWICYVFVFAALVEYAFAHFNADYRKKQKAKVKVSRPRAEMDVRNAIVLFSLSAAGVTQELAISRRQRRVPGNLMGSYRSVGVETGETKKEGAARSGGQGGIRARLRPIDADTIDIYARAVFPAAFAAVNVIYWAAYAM
Chain of UniProt P33033 (whole entry, looked up): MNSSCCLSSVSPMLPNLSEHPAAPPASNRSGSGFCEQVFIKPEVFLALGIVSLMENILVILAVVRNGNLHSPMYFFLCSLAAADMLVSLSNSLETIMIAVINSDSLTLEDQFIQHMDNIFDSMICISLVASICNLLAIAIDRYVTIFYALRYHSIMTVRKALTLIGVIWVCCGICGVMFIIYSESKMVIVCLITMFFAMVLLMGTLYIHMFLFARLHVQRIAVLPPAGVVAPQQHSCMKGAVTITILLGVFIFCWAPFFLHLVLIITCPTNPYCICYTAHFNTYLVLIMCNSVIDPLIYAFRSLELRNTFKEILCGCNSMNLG
Chain of UniProt P48169 (whole entry, looked up): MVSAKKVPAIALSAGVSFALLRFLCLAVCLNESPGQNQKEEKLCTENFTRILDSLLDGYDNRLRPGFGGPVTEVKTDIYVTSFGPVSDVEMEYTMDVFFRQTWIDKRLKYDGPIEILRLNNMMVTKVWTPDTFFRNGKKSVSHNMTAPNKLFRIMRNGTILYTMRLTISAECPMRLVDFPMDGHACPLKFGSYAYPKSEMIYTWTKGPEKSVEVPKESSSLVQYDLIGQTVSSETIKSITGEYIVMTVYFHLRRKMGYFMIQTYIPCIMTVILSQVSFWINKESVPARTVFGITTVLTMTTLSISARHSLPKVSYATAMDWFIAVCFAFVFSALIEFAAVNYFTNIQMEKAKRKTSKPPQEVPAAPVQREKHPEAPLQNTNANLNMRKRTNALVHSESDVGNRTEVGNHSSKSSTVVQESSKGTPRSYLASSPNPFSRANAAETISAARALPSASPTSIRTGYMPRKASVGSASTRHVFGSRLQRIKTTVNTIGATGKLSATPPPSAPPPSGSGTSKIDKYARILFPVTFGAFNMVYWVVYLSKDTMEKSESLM
Chain of UniProt Q9NXA8 (whole entry, looked up): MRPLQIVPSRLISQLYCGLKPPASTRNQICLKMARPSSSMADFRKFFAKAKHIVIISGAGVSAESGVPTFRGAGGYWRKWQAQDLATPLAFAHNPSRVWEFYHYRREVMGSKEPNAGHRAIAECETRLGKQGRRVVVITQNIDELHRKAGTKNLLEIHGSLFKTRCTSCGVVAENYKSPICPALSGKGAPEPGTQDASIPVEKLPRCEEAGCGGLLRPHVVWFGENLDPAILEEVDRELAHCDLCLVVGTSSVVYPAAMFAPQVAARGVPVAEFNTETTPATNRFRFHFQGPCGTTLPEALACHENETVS
Chain of UniProt P50395 (whole entry, looked up): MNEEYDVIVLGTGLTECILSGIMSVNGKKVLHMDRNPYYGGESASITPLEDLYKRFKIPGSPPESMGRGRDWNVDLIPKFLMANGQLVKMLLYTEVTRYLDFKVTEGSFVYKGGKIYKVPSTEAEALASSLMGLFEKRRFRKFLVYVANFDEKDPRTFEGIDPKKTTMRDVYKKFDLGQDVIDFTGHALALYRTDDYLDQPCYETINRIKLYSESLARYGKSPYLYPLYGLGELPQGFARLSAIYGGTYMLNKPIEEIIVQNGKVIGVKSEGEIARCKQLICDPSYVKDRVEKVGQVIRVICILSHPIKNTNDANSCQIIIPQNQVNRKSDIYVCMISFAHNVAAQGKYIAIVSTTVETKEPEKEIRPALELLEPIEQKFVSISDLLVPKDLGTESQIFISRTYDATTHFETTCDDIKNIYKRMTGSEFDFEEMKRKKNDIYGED
Chain of UniProt Q9GZK7 (whole entry, looked up): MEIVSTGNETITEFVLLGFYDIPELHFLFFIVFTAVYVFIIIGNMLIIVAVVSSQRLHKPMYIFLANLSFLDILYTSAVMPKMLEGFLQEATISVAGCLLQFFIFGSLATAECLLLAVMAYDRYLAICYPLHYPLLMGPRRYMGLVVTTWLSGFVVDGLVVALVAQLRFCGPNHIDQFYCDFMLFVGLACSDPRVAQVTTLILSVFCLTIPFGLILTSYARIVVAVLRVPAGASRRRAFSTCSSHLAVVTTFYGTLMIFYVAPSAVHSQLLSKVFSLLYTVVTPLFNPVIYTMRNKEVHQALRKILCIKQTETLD
Chain of UniProt P34995 (whole entry, looked up): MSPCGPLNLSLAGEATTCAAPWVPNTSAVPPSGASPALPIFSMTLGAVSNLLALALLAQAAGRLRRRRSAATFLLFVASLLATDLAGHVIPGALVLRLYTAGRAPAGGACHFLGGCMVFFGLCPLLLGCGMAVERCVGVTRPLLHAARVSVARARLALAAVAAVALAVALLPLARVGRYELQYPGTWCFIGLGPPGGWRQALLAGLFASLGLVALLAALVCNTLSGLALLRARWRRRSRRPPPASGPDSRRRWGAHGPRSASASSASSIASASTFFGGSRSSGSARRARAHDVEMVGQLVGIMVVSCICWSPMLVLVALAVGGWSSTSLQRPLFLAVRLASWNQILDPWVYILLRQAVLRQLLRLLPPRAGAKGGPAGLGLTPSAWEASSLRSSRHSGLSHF

Compound | target | test | test system | setting | EC50 [nM]
O=C(Nc1cc(F)ccn1)C12CC1/C(=N\O)c1ccccc1O2 (single isomer, unassigned; (-)) | GRM4 (Homo sapiens, UniProt Q14833) | calcium mobilisation, positive allosteric modulator | CHO hmGluR4/Gqi5 | added: glutamate EC20 | 1300
C[C@H](NC(=O)[C@H](CC(N)=O)NC(=O)[C@H](Cc1c[nH]c2ccccc12)NC(=O)[C@H](CCCNC(=N)N)NC(=O)[C@@H](Cc1ccccc1)NC(=O)[C@H](Cc1c[nH]cn1)NC(=O)[C@H](CN=[N+]=[N-])NC(=O)[C@@H](N)Cc1ccc(O)cc1)C(=O)N[C@@H](Cc1ccccc1)C(=O)N[C@@H](CN=[N+]=[N-])C(=O)N[C@@H](Cc1ccc(O)cc1)C(N)=O | Melanocortin receptor 3 (Mus musculus, UniProt P33033) | agonist | – | – | 59 ± 5.8
O=C(O)/C=C/c1cccc(NC(=O)c2cc(-c3ccc(F)cc3)ccc2F)c1 | PTGER1 (Homo sapiens, UniProt P34995) | calcium signal, agonist, fluorescence | – | – | > 10000
COc1ccc(Cn2ccc3ccc(C(=O)NO)cc32)cc1 | MBLAC2 (Homo sapiens, UniProt Q68D91) | palmitoyl-CoA hydrolysis, inhibitor | – | added: [3H]palmitoyl-CoA | 1000
CCC1(O)C2(C)CCC(C2)C1(C)C (stereo not shown) | OR11A1 (Homo sapiens, UniProt Q9GZK7) | cAMP, agonist, luciferase | – | – | 10100
CCOC(=O)C1=CN([C@@H]2O[C@H](CO)[C@@H](O)[C@H]2O)C=CC1 | SIRT5 (Homo sapiens, UniProt Q9NXA8) | – | – | – | 88000
CC[C@H](C)NC(=O)/C(=C\Nc1ccc(Cl)cc1)C(=O)c1ccccc1Cl | Gamma-aminobutyric acid receptor subunit alpha-4/beta3/delta (Homo sapiens, UniProt O14764+P28472+P48169) | GABA current potentiation, positive modulator, two-electrode voltage clamp | Xenopus laevis oocytes | 30 s preincubation, added: GABA EC10 | 450 ± 100
O=C(c1cc2c(s1)CCCCC2)N1CCC(n2c(=O)[nH]c3ccccc32)CC1 | TRPC6 (Homo sapiens, UniProt Q9Y210) | ion current, agonist, patch clamp | – | – | 450
COc1ccc(C(=O)/C=C(\O)C(F)(F)C(F)(F)F)cn1 | Formate-nitrite transporter (Plasmodium falciparum, UniProt O77389) | cell viability, resazurin | yeast expressing Formate-nitrite transporter | 72 h, L-lactate medium | 50
Clc1ccc2ccc3[n+](c2c1)[Rh-3]12([c]4ccccc4-3)([c]3ccccc3-c3ccc4ccc(Cl)cc4[n+]31)[n+]1ccccc1-c1cccc[n+]12.F[P-](F)(F)(F)(F)F | CDK9 with cyclin T1 | enzyme activity, inhibitor | – | – | 162
Cc1cc2c(cc1C)N[C@H](CC(=O)Nc1ccc(N3CCOCC3)cc1)C(=O)N2 | PRKCZ (Homo sapiens, UniProt Q05513) | enzyme activity, activator, ADP detection | – | – | 1090
Cc1cc(C)cc(COc2cc3c(cc2OCc2cc(C)cc(C)c2)C2CC(O)CC(C)N2CC3)c1 (stereo not shown) | Rab GDP dissociation inhibitor beta (Homo sapiens, UniProt P50395) | Rab1A extraction from membranes, inhibitor | PC-3 membrane extract | added: Rab GDP dissociation inhibitor beta 1 µM | 4960
Clc1ccc2ccc3[n+](c2c1)[Rh-3]12([c]4ccccc4-3)([c]3ccccc3-c3ccc4ccc(Cl)cc4[n+]31)[n+]1cccc3ccc4ccc[n+]2c4c31.F[P-](F)(F)(F)(F)F | CDK9 with cyclin T1 | enzyme activity, inhibitor | – | – | > 1000

A few entries again:
Compound | target | test | test system | setting | EC50 [nM]
Cc1cc2c(cc1C)N[C@H](CC(=O)Nc1ccc(N3CCOCC3)cc1)C(=O)N2 | PRKCZ (Homo sapiens, UniProt Q05513) | enzyme activity, activator, ADP detection | – | – | 1090
CC[C@H](C)NC(=O)/C(=C\Nc1ccc(Cl)cc1)C(=O)c1ccccc1Cl | Gamma-aminobutyric acid receptor subunit alpha-4/beta3/delta (Homo sapiens, UniProt O14764+P28472+P48169) | GABA current potentiation, positive modulator, two-electrode voltage clamp | Xenopus laevis oocytes | 30 s preincubation, added: GABA EC10 | 450 ± 100
